Assay results collected from several papers.
Protocols differ between the studies behind these lines. “And” joins repeats or separate records; there may be more than shown. ± marks the error that the study gave.
Chain of UniProt Q9UHD2 (whole entry, looked up): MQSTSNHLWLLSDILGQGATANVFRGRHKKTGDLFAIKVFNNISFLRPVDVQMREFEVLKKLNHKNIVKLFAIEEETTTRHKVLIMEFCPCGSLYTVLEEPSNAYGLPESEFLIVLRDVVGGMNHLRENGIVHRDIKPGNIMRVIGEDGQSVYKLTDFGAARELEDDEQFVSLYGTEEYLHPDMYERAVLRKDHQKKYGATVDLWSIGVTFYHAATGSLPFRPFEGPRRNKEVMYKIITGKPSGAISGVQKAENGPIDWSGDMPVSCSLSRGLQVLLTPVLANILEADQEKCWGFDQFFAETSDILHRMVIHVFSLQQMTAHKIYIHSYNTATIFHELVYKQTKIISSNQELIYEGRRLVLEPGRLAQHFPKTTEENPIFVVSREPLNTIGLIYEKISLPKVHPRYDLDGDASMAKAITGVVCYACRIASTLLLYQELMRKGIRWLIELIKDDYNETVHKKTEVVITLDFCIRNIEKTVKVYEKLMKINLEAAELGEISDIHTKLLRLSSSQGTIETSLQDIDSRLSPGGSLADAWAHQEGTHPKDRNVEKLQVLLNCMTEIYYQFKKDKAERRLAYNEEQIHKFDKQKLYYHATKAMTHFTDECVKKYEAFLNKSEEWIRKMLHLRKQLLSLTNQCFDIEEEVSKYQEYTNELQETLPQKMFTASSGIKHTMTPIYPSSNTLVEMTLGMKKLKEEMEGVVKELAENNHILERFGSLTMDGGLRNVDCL

Structure (SMILES)	target or system	test	test system	setting	how to read	quantity	value
C[C@H](O)[C@@H](NC(=O)[C@H]1CCCN1C(=O)[C@@H](CCCCN)NC(=O)[C@@H](CO)NC(=O)[C@@H](Cc1ccc(O)cc1)NC(=O)[C@@H](CC(N)=O)NC(=O)CCOCCOCCOCCNC(=O)CN1CCN(CC(=O)O)CCN(CC(=O)O)CCN(CC(=O)O)CC1)C(=O)N[C@H](CC(=O)O)C(=O)N[C@H](CCCNC(=N)N)C(=O)N[C@H](CCC(N)=O)C(=O)N[C@H](Cc1ccc(O)cc1)C(=O)N[C@H](Cc1c[nH]cn1)C(=O)N[C@H](Cc1ccccc1)C(N)=O [gallium-68 labelled]	–	ex vivo gamma counting	BALB/c nude mouse, U-87 MG xenograft, blood	intravenous, 1.85 MBq, 60 min	–	tissue uptake	0.11 ± 0.02 %ID/g
CCCC[C@H]1C(=O)N(C)[C@@H](CCCC)C(=O)N[C@@H](CCCNC(=O)CN2CCN(CC(=O)O)CCN(CC(=O)O)CCN(CC(=O)O)CC2)C(=O)N[C@H](C(=O)NCC(N)=O)CSCC(=O)N[C@@H](Cc2ccc(O)cc2)C(=O)N(C)[C@@H](C)C(=O)N[C@@H](CC(N)=O)C(=O)N2CCC[C@H]2C(=O)N[C@@H](Cc2c[nH]cn2)C(=O)N[C@@H](CC(C)C)C(=O)N(C)CC(=O)N[C@@H](Cc2c[nH]c3ccccc23)C(=O)N[C@@H](CO)C(=O)N[C@@H](Cc2c[nH]c3ccccc23)C(=O)N1C [gallium-68 labelled]	–	–	NOD/SCID mice with CHO-hPD-L1 xenograft, heart	60 min post injection	–	tissue uptake	5.96 ± 2.76 %ID/g
COc1ccccc1-c1n[nH]c2nc(N[C@H]3CC[C@H](NS(=O)(=O)CC(C)C)CC3)ncc12	LINJ.11.1000	bead competition pull-down	Leishmania extract	5 µM	reference: vehicle	relative captured amount	0.87
C=C/C=C/C[C@@H](C)[C@@H](O)[C@H]1C(=O)N[C@@H](CC)C(=O)N(C)CC(=O)N(C)[C@@H](CC(C)C)C(=O)N[C@@H](C(C)C)C(=O)N(C)[C@@H](CC(C)C)C(=O)N[C@@H](C)C(=O)N[C@H](C)C(=O)N(C)[C@@H](CC(C)C)C(=O)N(C)[C@@H](CC(C)C)C(=O)N(C)[C@@H](C(C)C)C(=O)N1C	–	–	Wistar Kyoto rat, male, plasma	ip, 0.5 mg/kg/day, day 28, at sacrifice	–	plasma Cl- level	101 ± 1 mmol/L
Cn1nc(NS(C)(=O)=O)c2c(Cl)ccc(-n3c([C@H](Cc4cc(F)cc(F)c4)NC(=O)Cn4nc(C(F)F)c5c4C(F)(F)[C@@H]4C[C@H]54)nc4nc(OCCC(F)(F)F)ccc4c3=O)c21	–	–	human, plasma	oral, 200 mg single dose, powder in bottle, geometric mean	–	Cmax	169 ng/mL
CC[C@H](C)[C@H](NC(=O)[C@H](CO)NC(=O)[C@H](Cc1ccc(O)cc1)NC(=O)[C@H](Cc1ccc(O)cc1)NC(=O)[C@H](CC(N)=O)NC(=O)CNC(=O)[C@H](CO)NC(=O)[C@H](Cc1ccc(O)cc1)NC(=O)[C@H](CO)NC(=O)[C@H](CO)NC(=O)[C@H](CC(N)=O)NC(=O)COCCOCCNC(=O)CN1CCN(CC(=O)O)CCN(CC(=O)O)CCN(CC(=O)O)CC1)C(=O)N[C@@H](CC(C)C)C(N)=O [copper-64 labelled]	–	dynamic PET	KPC mouse, pancreatic cancer model, blood	intravenous, 0.9 min, 49 days after tamoxifen	–	tumour uptake	32.3 %ID/mL
Cc1nc2cccc(OCC(C)(C)C(=O)NC(C)C)c2c(N)c1C(=O)[O-].[Na+]	Salmonella typhimurium	–	TA1537	0.051 mg per plate, without S9, preincubation	–	revertant colonies per plate	12 ± 2
CSCC[C@H](NC(=O)CNC(=O)[C@H](CCCCN)NC(=O)[C@H](CC(C)C)NC(=O)[C@@H]1CCCN1C(=O)[C@H](CO)NC(=O)[C@H](Cc1c[nH]cn1)NC(=O)[C@H](Cc1c[nH]c2ccccc12)NC(=O)[C@H](CCCNC(=N)N)NC(=O)[C@H](CC(C)C)NC(=O)[C@H](CCCNC(=N)N)NC(=O)[C@H](Cc1c[nH]c2ccccc12)NC(=O)[C@H](CS)NC(=O)CCCCCNC(=O)CN1CCN(CC(=O)O)CCN(CC(=O)O)CCN(CC(=O)O)CC1)C(=O)O [copper-64 labelled]	–	ex vivo biodistribution	C57BL/6J mice bearing B16-F10 tumours, thymus	intravenous, 1.85 MBq, 18 h	–	tissue uptake	1.31 %ID/g
CC(C)(C)C(=O)OCOP(=O)(OCOC(=O)C(C)(C)C)C1CCCN(O)C1=O (stereo not drawn)	SK-MEL-2	–	–	–	–	log TGI	-5.06 log M
CC(CCC(=O)NCC(=O)O)C1CCC2C3CCC4CC(OC5OC(C(=O)O)C(O)C(O)C5O)CCC4(C)C3CC(O)C12C (stereo not drawn)	–	–	men, C/C genotype, plasma	dose not given, geometric mean	–	glucuronide to parent ratio	2.77
COc1ccccc1-c1n[nH]c2nc(NC3CCN(C(=O)Cc4ccc(F)cc4F)CC3)ncc12	MPK5 LINJ.30.2930	bead competition pull-down	Leishmania donovani extract	10 µM	reference: vehicle	relative captured amount	0.76
COCC12CCC(OC)C34C5CC6(O)C(OC)C(O)C(O)(C5C6OC(=O)c5ccccc5)C(C(OC)C13)C4N(C)C2 (stereo not drawn)	–	–	Sprague-Dawley rat, plasma	oral, dose not given, with NADES in PCW extract	–	Tmax	0.75 h
C#Cc1c(F)ccc2cc(O)cc(-c3ncc4c(N5CC6CCC(C5)N6C(=O)OC(C)OC(=O)CC56CC7CC(CC(C7)C5)C6)nc(OC[C@@]56CCCN5C[C@H](F)C6)nc4c3F)c12 (stereo partly drawn)	–	refers to: prodrug	mouse whole blood	1 µM	–	t1/2	2.32 h
CN(C)[C@H]1C[C@@]23CC[C@@]4(O2)C(=CC[C@]2(C)[C@@H](c5ccc6ccncc6c5)CC[C@H]24)C=C3[C@@H](O)[C@@H]1O	TBK1 (Homo sapiens, UniProt Q9UHD2)	ATP probe labelling, inhibitor, KiNativ profiling	–	1 µM	–	inhibition	-3%
O=C1NC2(CC2)COc2ncc(F)cc2[C@H]2COCCN2c2ccn3ncc1c3n2	–	–	Sprague-Dawley rat, male, spleen	oral, 2.5 mg/kg/day, 4 weeks, end of treatment	–	organ-to-brain weight ratio	54.9 ± 11.9%
CSCC[C@H](N)C(=O)N[C@@H](C)C(=O)N[C@@H](Cc1c[nH]c2ccccc12)C(=O)N[C@@H](Cc1c[nH]cn1)C(=O)N[C@@H](CC(=O)O)C(=O)N[C@@H](CC(=O)O)C(=O)N[C@@H](CCC(=O)O)C(=O)N[C@@H](CCC(=O)O)C(=O)N[C@@H](Cc1ccccc1)C(=O)N[C@@H](C)C(=O)N[C@@H](CCCNC(=N)N)C(=O)N[C@@H](CCCNC(=N)N)C(=O)N[C@@H](CCCNC(=N)N)C(=O)N[C@@H](CCCNC(=N)N)C(=O)NCCCCCC(=O)NCCCCC(NC(=O)CCCCCNC(=O)[C@H](CCCNC(=N)N)NC(=O)[C@H](CCCNC(=N)N)NC(=O)[C@H](CCCNC(=N)N)NC(=O)[C@H](CCCNC(=N)N)NC(=O)[C@H](C)NC(=O)[C@H](Cc1ccccc1)NC(=O)[C@H](CCC(=O)O)NC(=O)[C@H](CCC(=O)O)NC(=O)[C@H](CC(=O)O)NC(=O)[C@H](CC(=O)O)NC(=O)[C@H](Cc1c[nH]cn1)NC(=O)[C@H](Cc1c[nH]c2ccccc12)NC(=O)[C@H](C)NC(=O)[C@@H](N)CCSC)C(=O)NCCCCC(NC(=O)C(CCCCNC(=O)CCCCCNC(=O)[C@H](CCCNC(=N)N)NC(=O)[C@H](CCCNC(=N)N)NC(=O)[C@H](CCCNC(=N)N)NC(=O)[C@H](CCCNC(=N)N)NC(=O)[C@H](C)NC(=O)[C@H](Cc1ccccc1)NC(=O)[C@H](CCC(=O)O)NC(=O)[C@H](CCC(=O)O)NC(=O)[C@H](CC(=O)O)NC(=O)[C@H](CC(=O)O)NC(=O)[C@H](Cc1c[nH]cn1)NC(=O)[C@H](Cc1c[nH]c2ccccc12)NC(=O)[C@H](C)NC(=O)[C@@H](N)CCSC)NC(=O)CCCCCNC(=O)[C@H](CCCNC(=N)N)NC(=O)[C@H](CCCNC(=N)N)NC(=O)[C@H](CCCNC(=N)N)NC(=O)[C@H](CCCNC(=N)N)NC(=O)[C@H](C)NC(=O)[C@H](Cc1ccccc1)NC(=O)[C@H](CCC(=O)O)NC(=O)[C@H](CCC(=O)O)NC(=O)[C@H](CC(=O)O)NC(=O)[C@H](CC(=O)O)NC(=O)[C@H](Cc1c[nH]cn1)NC(=O)[C@H](Cc1c[nH]c2ccccc12)NC(=O)[C@H](C)NC(=O)[C@@H](N)CCSC)C(N)=O (stereo partly drawn)	–	–	C57BL/6 mouse female, liver	dose not given, 6 h	reference: total	tissue distribution	10.8% and 5.93% and 5.6%
CS(C)(=O)=Nc1ccc(-c2ccc(-c3nc4cc(O[C@@H]5CO[C@H]6[C@@H]5OC[C@H]6O)[nH]c4cc3F)cc2)cc1	TNF-alpha human	binding	–	10 µM	–	inhibition	-2%
CC[C@H](C)[C@H](NC(=O)[C@H](CCCCN)NC(=O)CNC(=O)[C@H](CC(C)C)NC(=O)[C@H](Cc1ccccc1)NC(=O)[C@H](CCCCN)NC(=O)[C@H](CO)NC(=O)[C@H](Cc1ccccc1)NC(=O)[C@H](Cc1c[nH]c2ccccc12)NC(=O)[C@H](CCC(N)=O)NC(=O)[C@@H](NC(=O)[C@H](Cc1ccccc1)NC(=O)CCCCCNC(=O)CN1CCN(CC(=O)O)CCN(CC(=O)O)CCN(CC(=O)O)CC1)C(C)C)C(=O)N[C@@H](CCC(=O)O)C(=O)N1CCC[C@H]1C(=O)N[C@@H](CC(=O)O)C(=O)N[C@H](C(=O)N[C@@H](CO)C(=O)N[C@@H](CCC(N)=O)C(=O)N[C@H](C(=O)N[C@@H](CCC(N)=O)C(=O)N[C@@H](CC(=O)O)C(=O)N1CCC[C@H]1C(=O)N[C@@H](CC(N)=O)C(=O)N[C@@H](CC(=O)O)C(=O)N[C@@H](CCC(N)=O)C(=O)N[C@@H](Cc1ccc(O)cc1)C(=O)N[C@@H](CCC(=O)O)C(=O)N1CCC[C@H]1C(=O)N[C@@H](Cc1ccccc1)C(=O)O)C(C)C)C(C)C [copper-64 labelled]	–	–	C57BL/6 male mouse, tumour-naive, large intestine	0.5 h	–	tissue uptake	4.64 ± 0.2 %ID/g
CC(C)C[C@@H](NC(=O)[C@@H](CCCNC(=N)N)NC(=O)[C@@H](Cc1c[nH]cn1)NC(=O)[C@@H](Cc1c[nH]c2ccccc12)NC(=O)[C@@H](Cc1c[nH]cn1)NC(=O)[C@@H](Cc1ccccc1)NC(=O)[C@H](NC(=O)[C@@H](Cc1ccc(O)cc1)NC(=O)CNC(=O)CNC(=O)CCOCCOCCOCCNC(=O)CN1CCN(CC(=O)O)CCN(CC(=O)O)CC1)[C@H](C)O)C(=O)N[C@H](CC(N)=O)C(=O)N1CCC[C@@H]1C(=O)O [gallium-68 labelled]	–	OLINDA/EXM	adult male human, heart wall	extrapolated from C57BL/6 mice	–	organ absorbed dose	0.0103 ± 0.0002 mSv/MBq
O=C(NS(=O)(=O)c1cccs1)c1cc2ccccc2n1Cc1ccc(Br)c2ccccc12	–	–	Kunming mice both sexes	oral	–	MTD	> 1000 mg/kg
CC(C)(N)CNC(=O)Oc1cccc([C@H]2CCC[C@@]3(C2)OOC2(O3)C3CC4CC(C3)CC2C4)c1 (stereo partly drawn)	–	metabolic stability	human, liver microsomes	–	–	microsomal CLint	< 11 µL/min/mg

For quick reference, copied from above:
Structure (SMILES)	target or system	test	test system	setting	how to read	quantity	value
CS(C)(=O)=Nc1ccc(-c2ccc(-c3nc4cc(O[C@@H]5CO[C@H]6[C@@H]5OC[C@H]6O)[nH]c4cc3F)cc2)cc1	TNF-alpha human	binding	–	10 µM	–	inhibition	-2%
Cn1nc(NS(C)(=O)=O)c2c(Cl)ccc(-n3c([C@H](Cc4cc(F)cc(F)c4)NC(=O)Cn4nc(C(F)F)c5c4C(F)(F)[C@@H]4C[C@H]54)nc4nc(OCCC(F)(F)F)ccc4c3=O)c21	–	–	human, plasma	oral, 200 mg single dose, powder in bottle, geometric mean	–	Cmax	169 ng/mL
O=C1NC2(CC2)COc2ncc(F)cc2[C@H]2COCCN2c2ccn3ncc1c3n2	–	–	Sprague-Dawley rat, male, spleen	oral, 2.5 mg/kg/day, 4 weeks, end of treatment	–	organ-to-brain weight ratio	54.9 ± 11.9%
